Results collected from several papers.
Lines come from different studies, so protocols differ. Values joined by “and” are separate records of one study, mostly repeats; a detail may differ. ± marks the error that the study gave.

CCCc1cc(O)c(C/C=C(\C)CCC=C(C)C)c(O)c1  plasma concentration (LC-MS/MS; Scn1a+/− mouse, plasma; intraperitoneal, 10 mg/kg, after hyperthermia protocol): 807 ± 182 ng/mL
C1=Cc2nc1cc1ccc([n-]1)c(C1CC1)c1nc(cc3ccc([n-]3)c2C2CC2)C=C1.CC(=O)[O-].[Mn+3]  plasma concentration (LC-MS/MS; Sprague-Dawley rat, plasma; oral gavage, dose not given, 240 min): 264 ng/mL and 622 ng/mL
CCCCCc1cc(O)c(C/C=C(\C)CCC=C(C)C)c(O)c1  plasma concentration (LC-MS/MS; Scn1a+/− mice, both sexes, plasma; intraperitoneal, 0.3 mg/kg, after hyperthermia protocol): 2 ng/mL
Cc1ccc(S(=O)(=O)n2c(N)nc3ccccc32)cc1  plasma concentration (mouse, plasma; intraperitoneal, 15 mg/kg, 120 min): 120 ± 50 nM
Cc1ccccc1C(=O)NN=Cc1ccc(O)c(Br)c1  plasma concentration (normal C3H/HeN mouse, plasma; intravenous, 0.8 mg/kg, 30 min): 72.5 ng/mL
CN(C)C1(CNC(=O)c2ccc3c(c2)CCN3C(=O)c2ccccc2)CCOCC1  plasma concentration (male C57BL/6 mice; intraperitoneal, 50 mg/kg, 120 min): 133 ng/mL
CCN(CC)CCCC[C@H](NC(=O)[C@H](CC(C)C)NC(=O)[C@H](C)NC(=O)[C@H](Cc1ccccc1)NC(=O)c1ccc(C(C)(C)C)cc1)C(=O)N[C@@H](CO)C(=O)OC  plasma concentration (male Swiss Albino mice, plasma; intraperitoneal, 10 mg/kg, 0.25 h): 298 ng/mL
Cc1ccc(F)c2cc(C(=O)N[C@@H]3CCC[C@H](N4CC[C@H](N(C)S(C)(=O)=O)C4)C3)[nH]c12  plasma concentration (CD1 mouse, plasma; intravenous, 1 mg/kg, 7 h): 6.73 ng/mL
CCCc1cc(O)c(C/C=C(\C)CCC=C(C)C)c(O)c1C(=O)O  plasma concentration (LC-MS/MS; Scn1a+/− mice, plasma; intraperitoneal, 100 mg/kg, after hyperthermia protocol): 400000 ± 23000 ng/mL
C1=Cc2nc1cc1ccc([n-]1)c(-c1ccccc1)c1nc(cc3ccc([n-]3)c2-c2ccccc2)C=C1.CC(=O)[O-].[Mn+3]  plasma concentration (LC-MS/MS; Sprague-Dawley rat, plasma; oral gavage, dose not given, 120 min, individual rat Rat1): 35 ng/mL
CCCCCc1cc(O)c(C/C=C(\C)CCC=C(C)C)c(O)c1C(=O)O  plasma concentration (LC-MS/MS; Scn1a+/− mice, both sexes, plasma; intraperitoneal, 10 mg/kg, after hyperthermia protocol): 13000 ± 1000 ng/mL
[2H]C([2H])([2H])C1(C([2H])([2H])[2H])NC(=O)N(c2ccc(F)c(C(F)(F)F)c2)C1=O  plasma concentration (male Swiss outbred mice, plasma; oral, 100 mg/kg, 24 h): 38400 ± 3010 ng/mL

For quick reference, copied from above:
CCCc1cc(O)c(C/C=C(\C)CCC=C(C)C)c(O)c1  plasma concentration (LC-MS/MS; Scn1a+/− mouse, plasma; intraperitoneal, 10 mg/kg, after hyperthermia protocol): 807 ± 182 ng/mL
C1=Cc2nc1cc1ccc([n-]1)c(C1CC1)c1nc(cc3ccc([n-]3)c2C2CC2)C=C1.CC(=O)[O-].[Mn+3]  plasma concentration (LC-MS/MS; Sprague-Dawley rat, plasma; oral gavage, dose not given, 240 min): 264 ng/mL and 622 ng/mL
